Experimental data gathered from unrelated publications.
Several values in a cell are separate wells, animals, samples, runs or records. ± marks the error that the study gave.
Uncharacterized protein: Uncharacterized protein (Trypanosoma brucei brucei, UniProt Q386Q8)
TDP1: Tyrosyl-DNA phosphodiesterase 1 (TDP1, Homo sapiens, UniProt Q9NUW8)
UniProt Q9NUW8, sequence (whole entry, looked up): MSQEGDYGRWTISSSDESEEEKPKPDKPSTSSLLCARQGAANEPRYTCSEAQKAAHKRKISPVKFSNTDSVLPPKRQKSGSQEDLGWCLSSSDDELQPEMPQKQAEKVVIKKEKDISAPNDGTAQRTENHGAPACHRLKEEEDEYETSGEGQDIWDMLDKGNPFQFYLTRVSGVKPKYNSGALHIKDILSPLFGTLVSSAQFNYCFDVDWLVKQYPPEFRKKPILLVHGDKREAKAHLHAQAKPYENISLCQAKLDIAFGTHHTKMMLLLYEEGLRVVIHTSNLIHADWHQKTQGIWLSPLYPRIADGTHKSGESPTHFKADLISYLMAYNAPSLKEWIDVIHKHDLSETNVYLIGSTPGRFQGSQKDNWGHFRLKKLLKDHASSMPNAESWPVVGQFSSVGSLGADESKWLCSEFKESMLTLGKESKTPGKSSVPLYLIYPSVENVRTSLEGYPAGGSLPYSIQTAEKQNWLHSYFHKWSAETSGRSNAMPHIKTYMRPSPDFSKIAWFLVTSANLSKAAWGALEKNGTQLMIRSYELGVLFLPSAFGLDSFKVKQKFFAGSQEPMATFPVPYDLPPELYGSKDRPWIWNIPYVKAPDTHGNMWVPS
OfChi-h: Chitinase (OfChi-h, Ostrinia furnacalis, UniProt Q4AE59)
ppa: Inorganic pyrophosphatase (ppa, Escherichia coli, UniProt P0A7A9)
UniProt P0A7A9, sequence (whole entry, looked up): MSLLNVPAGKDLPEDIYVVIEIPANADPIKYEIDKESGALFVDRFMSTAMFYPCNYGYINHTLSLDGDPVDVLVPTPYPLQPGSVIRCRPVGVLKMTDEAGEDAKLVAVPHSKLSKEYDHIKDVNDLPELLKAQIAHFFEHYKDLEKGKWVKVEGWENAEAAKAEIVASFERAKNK
Tmem97: Sigma intracellular receptor 2 (Tmem97, Rattus norvegicus, UniProt Q5U3Y7)
UniProt Q13148, sequence (whole entry, looked up): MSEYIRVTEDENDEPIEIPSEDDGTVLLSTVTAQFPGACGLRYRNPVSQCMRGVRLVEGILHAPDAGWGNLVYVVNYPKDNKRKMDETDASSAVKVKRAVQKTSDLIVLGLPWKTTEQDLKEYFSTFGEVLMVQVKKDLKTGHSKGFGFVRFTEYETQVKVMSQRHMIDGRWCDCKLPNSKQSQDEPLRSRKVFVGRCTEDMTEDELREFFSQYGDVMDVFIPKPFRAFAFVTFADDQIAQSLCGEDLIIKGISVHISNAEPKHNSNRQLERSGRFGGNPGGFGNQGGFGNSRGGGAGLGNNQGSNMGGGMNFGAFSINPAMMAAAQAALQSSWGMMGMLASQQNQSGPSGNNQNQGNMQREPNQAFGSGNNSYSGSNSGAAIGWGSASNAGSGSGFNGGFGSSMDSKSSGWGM
UniProt Q5U3Y7, sequence (whole entry, looked up): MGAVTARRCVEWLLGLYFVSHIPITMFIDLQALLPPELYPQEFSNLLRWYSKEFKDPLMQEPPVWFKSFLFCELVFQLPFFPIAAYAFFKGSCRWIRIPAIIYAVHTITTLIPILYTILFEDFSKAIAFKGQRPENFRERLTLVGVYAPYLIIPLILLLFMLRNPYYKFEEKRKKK
UniProt Q93009, sequence (whole entry, looked up): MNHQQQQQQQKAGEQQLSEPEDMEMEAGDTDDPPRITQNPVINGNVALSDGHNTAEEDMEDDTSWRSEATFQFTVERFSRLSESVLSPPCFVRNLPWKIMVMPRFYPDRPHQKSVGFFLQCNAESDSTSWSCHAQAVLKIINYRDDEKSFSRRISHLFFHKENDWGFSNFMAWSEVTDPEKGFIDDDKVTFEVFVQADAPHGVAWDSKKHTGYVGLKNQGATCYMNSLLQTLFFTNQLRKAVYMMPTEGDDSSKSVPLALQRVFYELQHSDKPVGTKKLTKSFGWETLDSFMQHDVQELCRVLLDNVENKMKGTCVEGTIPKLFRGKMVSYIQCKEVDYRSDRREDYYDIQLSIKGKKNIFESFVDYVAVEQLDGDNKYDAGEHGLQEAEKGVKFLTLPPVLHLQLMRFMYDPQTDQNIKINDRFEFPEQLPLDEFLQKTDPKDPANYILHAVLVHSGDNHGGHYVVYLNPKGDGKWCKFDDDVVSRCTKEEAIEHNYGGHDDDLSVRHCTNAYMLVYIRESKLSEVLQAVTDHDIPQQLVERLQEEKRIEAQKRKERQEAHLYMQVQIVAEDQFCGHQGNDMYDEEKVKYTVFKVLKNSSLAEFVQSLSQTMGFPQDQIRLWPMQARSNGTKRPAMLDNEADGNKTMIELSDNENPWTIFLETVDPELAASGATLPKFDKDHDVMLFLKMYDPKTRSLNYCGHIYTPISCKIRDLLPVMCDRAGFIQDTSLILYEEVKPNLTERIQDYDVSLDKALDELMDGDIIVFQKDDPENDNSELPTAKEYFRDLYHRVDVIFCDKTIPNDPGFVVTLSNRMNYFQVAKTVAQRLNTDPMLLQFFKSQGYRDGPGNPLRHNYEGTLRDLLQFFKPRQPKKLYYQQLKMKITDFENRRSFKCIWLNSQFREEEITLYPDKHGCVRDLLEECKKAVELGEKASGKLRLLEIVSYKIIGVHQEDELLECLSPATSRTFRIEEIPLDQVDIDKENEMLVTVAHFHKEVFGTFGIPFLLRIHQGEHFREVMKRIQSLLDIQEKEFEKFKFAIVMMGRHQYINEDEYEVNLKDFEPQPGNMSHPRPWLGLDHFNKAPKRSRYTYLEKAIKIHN
UniProt P08912, sequence (whole entry, looked up): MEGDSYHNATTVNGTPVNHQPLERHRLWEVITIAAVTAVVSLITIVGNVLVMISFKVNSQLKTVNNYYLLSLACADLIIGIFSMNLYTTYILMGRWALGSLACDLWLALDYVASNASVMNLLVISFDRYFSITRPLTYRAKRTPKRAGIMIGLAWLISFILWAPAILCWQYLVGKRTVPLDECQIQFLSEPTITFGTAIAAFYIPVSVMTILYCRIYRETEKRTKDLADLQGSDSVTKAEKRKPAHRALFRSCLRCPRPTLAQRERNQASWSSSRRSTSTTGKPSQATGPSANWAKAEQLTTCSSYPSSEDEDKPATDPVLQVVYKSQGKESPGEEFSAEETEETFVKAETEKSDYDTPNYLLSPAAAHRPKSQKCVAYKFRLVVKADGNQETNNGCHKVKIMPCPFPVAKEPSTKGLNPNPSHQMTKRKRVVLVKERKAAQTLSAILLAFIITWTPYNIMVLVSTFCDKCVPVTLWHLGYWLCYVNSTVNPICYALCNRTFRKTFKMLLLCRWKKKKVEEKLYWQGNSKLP
UniProt Q5JUK3, sequence (whole entry, looked up): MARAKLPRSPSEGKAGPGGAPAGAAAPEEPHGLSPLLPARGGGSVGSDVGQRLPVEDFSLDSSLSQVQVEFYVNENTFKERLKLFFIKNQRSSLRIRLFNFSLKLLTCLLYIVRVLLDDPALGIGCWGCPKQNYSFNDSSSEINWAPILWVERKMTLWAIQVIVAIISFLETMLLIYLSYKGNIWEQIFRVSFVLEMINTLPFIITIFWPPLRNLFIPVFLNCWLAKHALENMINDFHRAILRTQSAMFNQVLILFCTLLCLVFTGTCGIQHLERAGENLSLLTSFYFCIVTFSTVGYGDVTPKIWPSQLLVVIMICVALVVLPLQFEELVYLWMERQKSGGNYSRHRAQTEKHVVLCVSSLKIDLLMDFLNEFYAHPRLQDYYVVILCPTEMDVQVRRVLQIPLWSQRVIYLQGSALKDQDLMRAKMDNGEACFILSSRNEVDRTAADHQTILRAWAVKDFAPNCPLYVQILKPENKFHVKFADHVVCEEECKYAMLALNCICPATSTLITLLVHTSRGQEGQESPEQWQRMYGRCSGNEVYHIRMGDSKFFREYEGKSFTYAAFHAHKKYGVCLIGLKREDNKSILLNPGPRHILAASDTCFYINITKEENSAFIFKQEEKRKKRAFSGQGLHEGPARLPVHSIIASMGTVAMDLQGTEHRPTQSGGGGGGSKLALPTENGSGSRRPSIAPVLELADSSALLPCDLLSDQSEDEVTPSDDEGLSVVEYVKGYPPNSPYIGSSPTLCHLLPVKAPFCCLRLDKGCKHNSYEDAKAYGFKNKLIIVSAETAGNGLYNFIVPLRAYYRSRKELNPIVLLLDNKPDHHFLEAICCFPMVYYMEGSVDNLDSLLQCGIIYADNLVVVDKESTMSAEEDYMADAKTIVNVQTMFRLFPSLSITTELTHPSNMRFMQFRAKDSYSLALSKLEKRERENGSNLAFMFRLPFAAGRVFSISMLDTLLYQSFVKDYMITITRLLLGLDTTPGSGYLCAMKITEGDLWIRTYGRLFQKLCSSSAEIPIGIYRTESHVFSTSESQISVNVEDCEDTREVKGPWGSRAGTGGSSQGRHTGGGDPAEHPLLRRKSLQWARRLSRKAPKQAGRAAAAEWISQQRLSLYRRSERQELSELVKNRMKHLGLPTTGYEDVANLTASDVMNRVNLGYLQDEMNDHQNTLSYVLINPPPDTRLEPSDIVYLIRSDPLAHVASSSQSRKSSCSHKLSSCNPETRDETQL
UniProt O75365, sequence (whole entry, unmodified, looked up): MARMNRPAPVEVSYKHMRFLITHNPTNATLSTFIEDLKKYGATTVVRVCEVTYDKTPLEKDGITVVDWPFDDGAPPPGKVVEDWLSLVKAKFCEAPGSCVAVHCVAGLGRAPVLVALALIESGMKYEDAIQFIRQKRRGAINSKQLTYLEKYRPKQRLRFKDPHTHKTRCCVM

CC(=O)C1=C(c2ccc(OC(F)F)cc2)N(C(C)=O)n2cnnc2S1 gave an inhibition of 38% (Uncharacterized protein; enzyme activity, inhibitor, coupled colorimetric; 30 µM, together with: E. coli pyrophosphatase coupling).
CCOC(=O)CCCCC1NCCc2ccc(O)c(O)c21 (centres unmarked) gave an inhibition of 31.8 ± 2.24% (tyrosinase; enzyme activity, inhibitor; 100 µM, together with: levodopa).
For CN1CCN(Cc2ccc(-c3ccc(CO[C@H]4CCC[C@@H]4NC(=O)c4cc(-c5cnn(C)c5)cnc4N)cc3)cc2)CC1, the inhibition was 0% (MAP3K21 (Homo sapiens, UniProt Q5TCX8); enzyme activity, inhibitor; 0.1 µM).
Cn1c(/C=C/c2cn(C)c3ccccc23)nc2ccccc2c1=O gave an inhibition of 26.3% (Uncharacterized protein; enzyme activity, inhibitor, coupled colorimetric; 30 µM, together with: E. coli pyrophosphatase coupling).
COc1ccc(C=NOCc2ccc(-c3nc4cc(-c5ccccc5)ccn4c3Nc3ccc(C(=O)O)cc3)cc2)cc1OCC#N gave an inhibition of 33.2% (TDP1; enzyme activity, inhibitor; 100 µM, unpurified compound).
For N=C(N)NCCCC(NC(=O)C(CC(=O)NO)Cc1ccc2ccccc2c1)C(=O)NC(Cc1c[nH]c2ccccc12)C(=O)NC(CCC(=O)O)C(N)=O (centres unmarked), the inhibition was 2% (Matrix metalloproteinase-19 (Homo sapiens, UniProt Q99542); 1 µM).
For Cc1cc(Cl)cc(-c2ccnc3cc(CN4C(=O)C5C(C4=O)C5(C)C)sc23)c1C[C@@H]1CNCCO1 (some centres unmarked), the inhibition was 114% (USP7 (Homo sapiens, UniProt Q93009); enzyme activity, inhibitor; 5 µM).
For CN(C)c1nc(NCc2cc(Cl)c(F)cc2F)c(/N=N/c2ccc(Cl)cc2)c(N(C)C)n1, the inhibition was 91.3% (OfChi-h; enzyme activity, inhibitor, fluorescence; 1 µM).
The inhibition of COc1cc([N+](=O)[O-])ccc1-n1c(C)cc(C=NOCc2ccc3nc(-c4ccccc4)c(Nc4ccc(C(=O)O)cc4)n3c2)c1C (mixture of isomers) is reported as 24.1% (TDP1; enzyme activity, inhibitor; 100 µM, unpurified compound).
CC1=NN(c2cccc(F)c2)C(=O)/C1=N\Nc1ccc(S(N)(=O)=O)cc1 has an inhibition of 25.065 ± 0.000863% (bovine α-glucosidase; enzyme activity, inhibitor, glucose oxidase; 10 µg/mL, together with: maltose).
Cc1cc(C=NOCc2ccc(-c3nc4cc(-c5ccccc5)ccn4c3Nc3ccc(C(=O)O)cc3)cc2)c(C)n1-c1ccc(N2CCCC2)c([N+](=O)[O-])c1 (mixture of isomers) has an inhibition of 75.8% (TDP1; enzyme activity, inhibitor; 100 µM, unpurified compound).
For COc1ccc(Br)cc1C[N+](C)(C)CCCN1c2ccccc2CCc2ccc(Cl)cc21, the inhibition was 53.5% (ppa; inhibitor, counter-screen, coupling enzyme alone; 30 µM).
CC(=O)C12NC(C)(C)CC1(C)C(=O)C1=C2c2c(c3c4n2C(C)(C)CC2=C4C4(CC(C)(C)NC(C)(C4)C2=O)CC3(C)C)C(=O)C(C)(C)N1 (single isomer, unassigned; (-)) gave an inhibition of 86.2% (TRPC6 (Homo sapiens, UniProt Q9Y210); ion current, inhibitor, patch clamp; HEK-293T; 10 µM).
O=C1C(O)=C(O)C(=O)C(O)=C1O gave an inhibition of 91.6 ± 0.1% (Protein tyrosine phosphatase type IVA 3, with CNNM4 CBS domain (PTP4A3, Homo sapiens, UniProt O75365); protein-protein interaction, HTRF; 10 µM).
With COc1ccccc1C1NCCc2cc(O)c(O)cc21 (centres unmarked) the inhibition was 13.2 ± 1.13% (tyrosinase; enzyme activity, inhibitor; 100 µM, together with: levodopa).
O=C(CSc1nnc(-c2ccco2)c(-c2ccco2)n1)c1cccs1 has an inhibition of 23% (Uncharacterized protein; enzyme activity, inhibitor, coupled colorimetric; 30 µM, together with: E. coli pyrophosphatase coupling).
With COc1ccc(C#CC2=C[C@H]3C[C@@]4(OC(=O)C=C24)[C@H]2CC[C@H](C(OC)OC)N32)cc1 the inhibition was 16% (PDE4D (Homo sapiens, UniProt Q08499); enzyme activity, inhibitor; 10 µM).
For CCNc1sc(C(C)=O)c(N)c1C#N, the inhibition was 39.5% (ppa; inhibitor, counter-screen, coupling enzyme alone; 30 µM).
For N#Cc1cccc(-n2cccc2C=NOCc2ccc3nc(-c4ccccc4)c(Nc4ccc(C(=O)O)cc4)n3c2)c1, the inhibition was -3.2% (TDP1; enzyme activity, inhibitor; 100 µM, unpurified compound).
O=C1c2sc(-c3ccc(N4CCC(F)C4)nc3F)nc2CCN1c1cccnc1 (centres unmarked) gave an inhibition of 69.5% and 76.7% (TAR DNA-binding protein 43, aggregated (TARDBP, Homo sapiens, UniProt Q13148); radioligand binding; homogenate, FTLD-TDP, type A; 500 nM, together with: [3H]ACI-19626).
With COc1cc(OC)c(F)c(/C=C/c2cnc3ccn(S(=O)(=O)c4cn(CCF)cn4)c3n2)c1F the inhibition was 0% (SRC (Homo sapiens, UniProt P12931); 10 nM).
The inhibition of CN(C)c1nc(NCc2ccc(Oc3ccccc3)cc2)c(/N=N/c2ccc(Cl)cc2)c(N(C)C)n1 is reported as 92% (OfChi-h; enzyme activity, inhibitor, fluorescence; 1 µM).
The inhibition of CS(=O)(=O)Nc1cccc(-c2csc3cnc(Nc4ccc(N5CCN(CCCCCOc6cccc7c6C(=O)N(C6CCC(=O)NC6=O)C7=O)CC5)cc4)nc23)c1 (centres unmarked) is reported as 26.9% (ILK (Homo sapiens, UniProt Q13418); probe labelling, inhibitor, KiNativ chemoproteomics; MOLT-4; 1 µM).
CC1Cc2ccccc2N1C(=O)CN1CCN(Cc2ccccc2)CC1 (centres unmarked) has an inhibition of 29.4% (HTR4 (Homo sapiens, UniProt Q13639); radioligand binding; concentration not given).
O=C(O)c1ccc(Nc2c(-c3ccccc3)nc3ccc(CON=Cc4cccn4Cc4cnc(Cl)s4)cn23)cc1 (mixture of isomers) has an inhibition of 13.9% (TDP1; enzyme activity, inhibitor; 100 µM, unpurified compound).
C[N+](C)(CCCN1c2ccccc2CCc2ccc(Cl)cc21)CC(=O)c1ccccc1 has an inhibition of 27.7% (Uncharacterized protein; enzyme activity, inhibitor, coupled colorimetric; 30 µM, together with: E. coli pyrophosphatase coupling).
The inhibition of COc1cc(-n2cc3cc(F)cc(C(N)=O)c3n2)cc(Cl)c1C1CC(O)(CCO)Cc2ccccc21 (centres unmarked) is reported as 0.81% (PARP15 (Homo sapiens, UniProt Q460N3); enzyme activity, inhibitor; 10 µM).
For O=C(O)c1ccc(Nc2c(-c3ccc(CON=Cc4ccc(-c5cnccn5)cc4)cc3)nc3cc(-c4ccccc4)ccn23)cc1, the inhibition was 102% (TDP1; enzyme activity, inhibitor; 100 µM).
For Cc1cc(O)ccc1N/C=C/C(=O)c1ccccc1, the inhibition was greater than 40% (KCNT1 (Homo sapiens, UniProt Q5JUK3); ion current, inhibitor, patch clamp; HEK293; 10 µM).
The inhibition of C[Si](C)(C)C[C@H](CN)CC(=O)O is reported as -1% (Tmem97; ligand displacement, radioligand; 250 µM).
For O=C1c2sc(-c3ccc(N4CCC(CO)CC4)nc3F)nc2CCN1c1cccnc1, the inhibition was -2% (central benzodiazepine receptor; radioligand binding; 1 µM, together with: agonist radioligand).
With COc1ccc(NC(=O)Nc2cc(C(C)(C)C)on2)cc1OC the inhibition was 22.6% (Uncharacterized protein; enzyme activity, inhibitor, coupled colorimetric; 30 µM, together with: E. coli pyrophosphatase coupling).
For Cc1cc(C=NOCc2ccc3nc(-c4ccccc4)c(Nc4ccc(C(=O)O)cc4)n3c2)c(C)n1CC1COc2ccccc2O1 (mixture of isomers), the inhibition was 37.9% (TDP1; enzyme activity, inhibitor; 100 µM, unpurified compound).
C=CC(=O)N1Cc2nc(-c3cc(-c4cc(Cl)cnc4Cl)c(F)cc3F)n(-c3ccncn3)c2C1 has an inhibition of -13.9% (PI4K2B (Homo sapiens, UniProt Q8TCG2); cell-free assay, inhibitor; 1 µM).
For CN(Cc1ccc(/C=C/C(=O)NO)cc1)CC12CC3CC(CC(C3)C1)C2, the inhibition was -1% (human V1a receptor; agonist radioligand binding; 0.05 µM).
With CN(C)C/C=C/C(=O)Nc1ccc2nc(NCCCCCN(C)C)nc(NCCCCCCN(C)C)c2c1 the inhibition was 87% (PRMT8 (Homo sapiens, UniProt Q9NR22); enzyme activity, inhibitor, radiometric; 50 µM).
CC(C)(C)OC(=O)C[N+](C)(C)CCCN1c2ccccc2CCc2ccc(Cl)cc21 gave an inhibition of 33.2% (Uncharacterized protein; enzyme activity, inhibitor, coupled colorimetric; 30 µM, together with: E. coli pyrophosphatase coupling).
For COc1ncc2nc(C)n(Cc3ncc(S(N)(=O)=O)cc3F)c2c1-c1ccccc1, the inhibition was 1.35% (CCKAR (Homo sapiens, UniProt P32238); antagonist, cell-based; 10 µM).
The inhibition of CC(C)Cn1c(SCC(=O)N2CCc3ccccc3C2)nc2cc(Cl)ccc2c1=O is reported as -2% (CHRM5 (Homo sapiens, UniProt P08912); ligand displacement, radioligand; 10 µM).
For Cc1[nH]nc2c1N=C(c1ccccc1Cl)c1cnc(N3CCOCC3)cc1N2, the inhibition was 5% (IL1R1 (Homo sapiens, UniProt P14778); cell-free assay; 10 µM).
CC1=NN(c2ccccc2F)C(=O)/C1=N\Nc1ccc(S(N)(=O)=O)cc1 has an inhibition of 32.817 ± 0.000577% (bovine α-glucosidase; enzyme activity, inhibitor, glucose oxidase; 10 µg/mL, together with: maltose).
For C[C@@H]1CN(Cc2ccccc2)[C@H]2C[C@@H]1CC(=O)[C@@H]2C, the inhibition was 7% (Tmem97; ligand displacement, radioligand; 1 µM).
For Cc1nc2c(F)cc(-c3nc(Nc4ccc(CNC(=O)CCCCCCC(=O)NO)cc4)ncc3F)cc2n1C(C)C, the inhibition was 21% (Phosphatidylinositol 4,5-bisphosphate 3-kinase catalytic subunit alpha isoform, with p85 alpha (Pik3ca, Mus musculus, UniProt P42337, H1047R); enzyme activity; 1 µM, p110α(H1047R)/p85α)(m mouse).
For O=C(O)c1ccc(Nc2c(-c3ccccc3)nc3ccc(CON=Cc4ccc(-c5cc(C(F)(F)F)ccn5)cc4)cn23)cc1 (mixture of isomers), the inhibition was 32.2% (TDP1; enzyme activity, inhibitor; 100 µM, unpurified compound).

Repeated from above:
For CCNc1sc(C(C)=O)c(N)c1C#N, the inhibition was 39.5% (ppa; inhibitor, counter-screen, coupling enzyme alone; 30 µM).
The inhibition of COc1cc(-n2cc3cc(F)cc(C(N)=O)c3n2)cc(Cl)c1C1CC(O)(CCO)Cc2ccccc21 (centres unmarked) is reported as 0.81% (PARP15 (Homo sapiens, UniProt Q460N3); enzyme activity, inhibitor; 10 µM).
The inhibition of CC(C)Cn1c(SCC(=O)N2CCc3ccccc3C2)nc2cc(Cl)ccc2c1=O is reported as -2% (CHRM5 (Homo sapiens, UniProt P08912); ligand displacement, radioligand; 10 µM).
